Measured values collected from several papers.
Numbers after ± are the reported error.
Chain of UniProt Q9NPD5 (whole entry, unmodified, looked up): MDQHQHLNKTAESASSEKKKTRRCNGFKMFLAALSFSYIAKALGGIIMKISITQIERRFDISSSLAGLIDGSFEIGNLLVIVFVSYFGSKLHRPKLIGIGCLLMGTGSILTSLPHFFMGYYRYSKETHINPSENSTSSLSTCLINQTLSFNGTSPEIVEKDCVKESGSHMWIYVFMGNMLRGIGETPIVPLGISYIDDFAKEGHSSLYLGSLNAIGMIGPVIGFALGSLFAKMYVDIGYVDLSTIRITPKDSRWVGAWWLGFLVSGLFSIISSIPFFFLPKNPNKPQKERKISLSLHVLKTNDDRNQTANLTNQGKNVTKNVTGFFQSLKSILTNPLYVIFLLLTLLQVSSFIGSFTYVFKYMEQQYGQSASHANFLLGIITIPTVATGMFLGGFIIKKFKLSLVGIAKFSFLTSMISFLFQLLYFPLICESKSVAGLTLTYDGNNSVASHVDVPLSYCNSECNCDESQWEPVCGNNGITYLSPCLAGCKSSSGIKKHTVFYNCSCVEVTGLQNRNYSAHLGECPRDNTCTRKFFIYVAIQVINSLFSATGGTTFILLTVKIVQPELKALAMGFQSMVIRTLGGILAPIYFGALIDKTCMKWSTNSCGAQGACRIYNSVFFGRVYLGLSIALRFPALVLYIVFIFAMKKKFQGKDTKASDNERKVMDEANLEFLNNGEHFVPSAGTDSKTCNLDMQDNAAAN

| SMILES | target or system | test | test system | conditions | how to read | measurement | result |
| --- | --- | --- | --- | --- | --- | --- | --- |
| CC[C@H](C)C(=O)N1CCC(NC(=O)Nc2ccc(OC(F)(F)F)c(F)c2)CC1 | Caco-2 | Caco-2 permeability |  | 10 µM, 60 min, pH 7.4 apical, 7.4 basolateral, replicate 1, with: verapamil | basolateral to apical | percent recovery | 99% |
| Cc1cc(Nc2ccc(S(F)(F)(F)(F)F)cc2)n2nc(C(C)(F)F)nc2n1 | Plasmodium falciparum |  | P. falciparum malaria patients | oral, 250 mg |  | patients with abdominal pain | 9.1% |
| Cn1cc(-c2ccc(-c3cncc(Cl)c3N3CCC4(CCNC4=O)CC3)cc2)cn1 | COLO 205 | gene expression, microarray, item: MXI1 mRNA |  | concentration not given, 2 h | baseline: untreated cells | log2 fold change | 2.2 |
| CC(C)c1nc(N(C)S(C)(=O)=O)nc(-c2ccc(F)cc2)c1/C=C/[C@@H](O)C[C@@H](O)CC(=O)O | Solute carrier organic anion transporter family member 1B3 (SLCO1B3, Homo sapiens, UniProt Q9NPD5) | uptake, substrate | HEK293-A stably expressing SLCO1B3 | 2 min |  | Vmax | 330 ± 140 pmol/mg protein/min |
| CC(C)C[C@H](NC(=O)C[C@H](O)[C@H](CC(C)C)NC(=O)[C@H](Cc1c[nH]cn1)NC(=O)CNC(=O)[C@@H](NC(=O)[C@H](C)NC(=O)[C@H](Cc1c[nH]c2ccccc12)NC(=O)[C@H](CCC(N)=O)NC(=O)[C@@H](Cc1ccccc1)NC(=O)COCCOCCNC(=O)CCC(C(=O)O)N1CCN(CC(=O)O)CCN(CC(=O)O)CCN(CC(=O)O)CC1)C(C)C)C(N)=O (stereo partly drawn) [lutetium-177 labelled] |  |  | BALB/c nu/nu mice, small intestine | 500 pmol, 1 h, with: PA 300 µg |  | tissue uptake | 0.4 ± 0.2 %ID/g |
| CCCC(=O)OCSc1ccccc1C(=O)NCCn1ccc(=O)c2cc(OC)ccc21 | CEM-SS | cell viability, XTT | RPMI with 10% FBS | 6 days |  | TC50 | 55 ± 4.75 µM |
| CC(C)n1c(/C=C/C(O)CC(O)CC(=O)O)c(-c2ccc(F)cc2)c2ccccc21 (stereo not drawn) | Solute carrier organic anion transporter family member 1B3 (SLCO1B3, Homo sapiens, UniProt Q9NPD5, S112A) | uptake, substrate | HEK293-A stably expressing SLCO1B3 | 2 min |  | Vmax | 1240 ± 481 pmol/mg protein/min |
| Cc1c(-c2ccc(N3CCc4cccc(C(=O)Nc5nc6ccccc6s5)c4C3)nc2C(=O)O)cnn1CC12CC3(C)CC(C)(C1)CC(OCCNCC[C@H](O)CO)(C3)C2 |  |  | beagle dog, male, anaesthetised | intravenous infusion, 0.3 mg/kg/min, 60 (unit not given) | baseline: vehicle | heart rate change | -7% |
| CN(C(=O)C(C)(C)c1cc(C(F)(F)F)cc(C(F)(F)F)c1)c1cnc(N2C[C@H]3COCCN3C[C@H]2CO)cc1-c1ccc(F)cc1[14CH3] | human hepatocytes | substrate |  | with: cobicistat 5 µM |  | fraction metabolized | ~88% |
| C[n+]1cccc(C(N)=O)c1 |  | binding, MIDAS equilibrium dialysis LC-MS | A2AR-BRIL thermostabilized | concentration not given | baseline: no-protein control | log2 fold change | -0.0971 |
| CC(C)[C@H](NC(=O)[C@H](Cc1ccc(O)cc1)NC(=O)[C@H](Cc1ccc(O)cc1)NC(=O)[C@@H]1CCCN1C(=O)[C@H](CCC(=O)O)NC(=O)[C@H](CCC(=O)O)NC(=O)[C@H](Cc1c[nH]c2ccccc12)NC(=O)[C@@H]1CCCN1C(=O)[C@@H](NC(=O)[C@H](CCC(N)=O)NC(=O)c1ccc2c(c1)C(=O)OC21c2ccc(O)cc2Oc2cc(O)ccc21)C(C)C)C(=O)N[C@H](C(=O)N[C@@H](CCCCN)C(=O)N[C@@H](CCCCN)C(=O)N[C@@H](CO)C(=O)N[C@@H](CO)C(=O)NCC(=O)NCC(N)=O)C(C)C |  |  | human, plasma | intravenous infusion, 400 mg, 0.08333 h |  | plasma concentration | 6750 ng/mL |
| CCCC(=O)OCSc1ccccc1C(=O)NCCn1ccc(=O)c2cc(C)ccc21 | CEM-SS | cell viability, XTT | RPMI with 10% FBS | 6 days |  | TC50 | 33.9 ± 3.88 µM |
